Measurements pooled from the literature.
Protocols differ between the studies behind these lines. Several values in a cell are separate wells, animals, samples, runs or records.

`Clc1ccc(-c2c(-c3ccccn3)nc3n2CCC3)cc1Cl` has an IC50 of 0.5 µM and 0.73 µM (Leishmania infantum; macrophages, MHOM/MA(BE)/67/ITMAP263, amastigote).
For `CCn1cc(-c2cc(Cn3ccoc3=N)cc3c2CCN([C@@H](C)c2cc(OC)ccn2)C3=O)c(C(F)(F)F)n1`, the EC50 was 0.0367 µM (COR-L105; cell growth, inhibitor; 120 h).
The IC50 of `Fc1ccc(Nc2c(-c3ccccn3)nc3ccc(C4CC4)cn23)cc1` is reported as 5.08 µM and 8.11 µM (Leishmania infantum; macrophages, MHOM/MA(BE)/67/ITMAP263, amastigote).
`OC(CCN1CCCCC1)(c1ccccc1)C1CC2C=CC1C2` (stereo not drawn) — result for “change in EEG Alpha2-power Pz-O1”: 20.7% (resting-state EEG; healthy elderly humans; oral, 2 mg, eyes open, LS mean; relative to: baseline).
With `O=Cc1ccccc1C(=O)O` the inhibition was 5.16% (THP-1; pyroptotic LDH release; 2 µM, 40 min, together with: LPS then nigericin).
For `Cn1cc(-c2ccc(-c3cncc(Cl)c3N3CCC4(CCNC4=O)CC3)cc2)cn1`, “log2 fold change” read 1.56 (COLO 205; gene expression, microarray, measured: CD55 mRNA; concentration not given, 6 h; relative to: untreated cells).
For `CO/N=C(\C(=O)N[C@@H]1C(=O)N2C(C(=O)O)=CCS[C@H]12)c1csc(N)n1`, the inhibition was 9.33% (THP-1; pyroptotic LDH release; 2 µM, 40 min, together with: LPS then nigericin).
`Fc1ccc(N(CC2CC2)c2c(-c3ccccn3)nc3ccccn23)cc1` has an IC50 of 1.29 µM and 2.03 µM (Leishmania infantum; macrophages, MHOM/MA(BE)/67/ITMAP263, amastigote).
The plaque area of `CC(C)n1ncc2c(C(=O)NCC3(C)CNC3)cc(C3CC3)nc21` is reported as 89.5% and 105% (Enterovirus D68; viral replication; RD, recombinant wild-type US/MO/14-18947; 0.03 µM; relative to: untreated).
With `N#CC(c1ccc(Cl)cc1)c1c(Cl)cc(-n2ncc(=O)[nH]c2=O)cc1Cl` (stereo not drawn) the inhibition was -8.62% (THP-1; pyroptotic LDH release; 2 µM, 40 min, together with: LPS then nigericin).
`Fc1ccc(Nc2c(-c3cccnn3)nc3ccccn23)cc1` gave a selectivity index of 2 (Leishmania infantum; MHOM/MA(BE)/67/ITMAP263; 120 h; relative to: CC50 macrophages over EC50 amastigotes).
`Cc1cnc(C)cn1` gave an inhibition of 16.3% (THP-1; pyroptotic LDH release; 2 µM, 40 min, together with: LPS then nigericin).
`Cn1cnc(-c2nc3ccccn3c2Nc2ccc(F)cc2)c1` has an IC50 of 6.82 µM and 9.51 µM (Leishmania infantum; macrophages, MHOM/MA(BE)/67/ITMAP263, amastigote).
`CN1CCOC(c2ccccc2)c2ccccc2C1` (stereo not drawn) gave an inhibition of 27.4% (THP-1; pyroptotic LDH release; 2 µM, 40 min, together with: LPS then nigericin).
With `O=C(O)CNC(=O)Cc1ccccc1` the sarcomere length was 1.65 µm (ventricular cardiomyocytes, C57BL/6 mouse; dose not given, 0.252 s).

Repeated from above:
`Fc1ccc(Nc2c(-c3cccnn3)nc3ccccn23)cc1` gave a selectivity index of 2 (Leishmania infantum; MHOM/MA(BE)/67/ITMAP263; 120 h; relative to: CC50 macrophages over EC50 amastigotes).
